Results gathered from unrelated publications.
Numbers after ± are the reported error.
Mc1r: Melanocyte-stimulating hormone receptor (Mc1r, Mus musculus, UniProt Q01727)
Chain of UniProt Q01727 (whole entry, looked up): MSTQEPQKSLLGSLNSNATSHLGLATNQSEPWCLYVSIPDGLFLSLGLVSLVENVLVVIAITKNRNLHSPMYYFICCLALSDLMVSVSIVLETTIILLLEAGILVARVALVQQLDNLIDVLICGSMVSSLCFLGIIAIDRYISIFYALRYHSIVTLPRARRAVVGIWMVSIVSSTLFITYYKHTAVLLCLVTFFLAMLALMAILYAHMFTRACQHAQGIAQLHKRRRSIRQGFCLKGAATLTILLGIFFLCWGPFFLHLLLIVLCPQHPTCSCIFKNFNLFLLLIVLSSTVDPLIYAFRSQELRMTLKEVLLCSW
CHRM1: Muscarinic acetylcholine receptor M1 (CHRM1, Homo sapiens, UniProt P11229)
Chain of UniProt P11229 (whole entry, looked up): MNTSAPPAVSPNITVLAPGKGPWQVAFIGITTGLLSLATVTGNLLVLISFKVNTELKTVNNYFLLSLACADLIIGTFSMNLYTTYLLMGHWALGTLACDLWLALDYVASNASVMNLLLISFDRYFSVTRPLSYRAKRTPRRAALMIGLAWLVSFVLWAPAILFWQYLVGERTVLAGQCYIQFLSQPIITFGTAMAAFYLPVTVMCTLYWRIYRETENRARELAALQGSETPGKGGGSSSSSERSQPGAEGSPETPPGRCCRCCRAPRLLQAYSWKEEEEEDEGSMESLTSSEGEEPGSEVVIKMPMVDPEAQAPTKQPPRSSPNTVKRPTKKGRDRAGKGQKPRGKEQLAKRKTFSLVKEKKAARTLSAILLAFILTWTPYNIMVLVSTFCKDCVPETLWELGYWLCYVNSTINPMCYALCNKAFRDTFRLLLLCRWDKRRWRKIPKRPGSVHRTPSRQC
Chain of UniProt P20309 (whole entry, looked up): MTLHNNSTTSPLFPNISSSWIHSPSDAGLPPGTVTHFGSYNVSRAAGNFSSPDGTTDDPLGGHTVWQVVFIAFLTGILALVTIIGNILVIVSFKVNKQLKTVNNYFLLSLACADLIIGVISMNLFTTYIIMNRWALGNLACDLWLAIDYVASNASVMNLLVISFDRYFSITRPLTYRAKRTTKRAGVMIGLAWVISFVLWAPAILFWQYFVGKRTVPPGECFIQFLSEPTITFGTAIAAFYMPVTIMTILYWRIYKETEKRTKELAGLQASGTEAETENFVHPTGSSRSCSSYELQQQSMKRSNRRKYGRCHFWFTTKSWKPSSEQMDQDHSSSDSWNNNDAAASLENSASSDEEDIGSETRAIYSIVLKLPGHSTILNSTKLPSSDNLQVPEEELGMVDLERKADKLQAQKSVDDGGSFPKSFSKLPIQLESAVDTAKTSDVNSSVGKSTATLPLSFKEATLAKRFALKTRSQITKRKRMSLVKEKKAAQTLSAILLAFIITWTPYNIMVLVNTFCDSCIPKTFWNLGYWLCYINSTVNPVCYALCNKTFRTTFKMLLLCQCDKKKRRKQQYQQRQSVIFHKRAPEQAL
Chain of UniProt P25084 (whole entry, looked up): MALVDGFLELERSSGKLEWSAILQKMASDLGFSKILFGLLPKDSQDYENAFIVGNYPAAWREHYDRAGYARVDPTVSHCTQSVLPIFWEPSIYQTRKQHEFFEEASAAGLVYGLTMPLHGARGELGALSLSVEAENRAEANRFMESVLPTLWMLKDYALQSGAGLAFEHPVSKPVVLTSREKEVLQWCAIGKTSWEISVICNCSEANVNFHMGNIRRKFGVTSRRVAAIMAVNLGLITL
Chain of UniProt Q0P543 (whole entry, looked up): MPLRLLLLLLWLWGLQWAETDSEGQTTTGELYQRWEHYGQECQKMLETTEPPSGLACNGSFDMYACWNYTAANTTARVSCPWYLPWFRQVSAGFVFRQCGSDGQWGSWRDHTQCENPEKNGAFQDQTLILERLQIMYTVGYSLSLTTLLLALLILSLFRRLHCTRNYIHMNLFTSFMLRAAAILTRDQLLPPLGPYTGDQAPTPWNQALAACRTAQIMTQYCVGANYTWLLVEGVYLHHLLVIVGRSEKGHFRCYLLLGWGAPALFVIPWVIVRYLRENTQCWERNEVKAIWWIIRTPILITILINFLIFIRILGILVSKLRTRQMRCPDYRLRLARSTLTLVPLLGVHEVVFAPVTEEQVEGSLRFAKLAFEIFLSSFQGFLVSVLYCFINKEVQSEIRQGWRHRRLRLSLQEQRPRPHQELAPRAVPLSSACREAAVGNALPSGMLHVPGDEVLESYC
Chain of UniProt P03313 (whole entry, looked up): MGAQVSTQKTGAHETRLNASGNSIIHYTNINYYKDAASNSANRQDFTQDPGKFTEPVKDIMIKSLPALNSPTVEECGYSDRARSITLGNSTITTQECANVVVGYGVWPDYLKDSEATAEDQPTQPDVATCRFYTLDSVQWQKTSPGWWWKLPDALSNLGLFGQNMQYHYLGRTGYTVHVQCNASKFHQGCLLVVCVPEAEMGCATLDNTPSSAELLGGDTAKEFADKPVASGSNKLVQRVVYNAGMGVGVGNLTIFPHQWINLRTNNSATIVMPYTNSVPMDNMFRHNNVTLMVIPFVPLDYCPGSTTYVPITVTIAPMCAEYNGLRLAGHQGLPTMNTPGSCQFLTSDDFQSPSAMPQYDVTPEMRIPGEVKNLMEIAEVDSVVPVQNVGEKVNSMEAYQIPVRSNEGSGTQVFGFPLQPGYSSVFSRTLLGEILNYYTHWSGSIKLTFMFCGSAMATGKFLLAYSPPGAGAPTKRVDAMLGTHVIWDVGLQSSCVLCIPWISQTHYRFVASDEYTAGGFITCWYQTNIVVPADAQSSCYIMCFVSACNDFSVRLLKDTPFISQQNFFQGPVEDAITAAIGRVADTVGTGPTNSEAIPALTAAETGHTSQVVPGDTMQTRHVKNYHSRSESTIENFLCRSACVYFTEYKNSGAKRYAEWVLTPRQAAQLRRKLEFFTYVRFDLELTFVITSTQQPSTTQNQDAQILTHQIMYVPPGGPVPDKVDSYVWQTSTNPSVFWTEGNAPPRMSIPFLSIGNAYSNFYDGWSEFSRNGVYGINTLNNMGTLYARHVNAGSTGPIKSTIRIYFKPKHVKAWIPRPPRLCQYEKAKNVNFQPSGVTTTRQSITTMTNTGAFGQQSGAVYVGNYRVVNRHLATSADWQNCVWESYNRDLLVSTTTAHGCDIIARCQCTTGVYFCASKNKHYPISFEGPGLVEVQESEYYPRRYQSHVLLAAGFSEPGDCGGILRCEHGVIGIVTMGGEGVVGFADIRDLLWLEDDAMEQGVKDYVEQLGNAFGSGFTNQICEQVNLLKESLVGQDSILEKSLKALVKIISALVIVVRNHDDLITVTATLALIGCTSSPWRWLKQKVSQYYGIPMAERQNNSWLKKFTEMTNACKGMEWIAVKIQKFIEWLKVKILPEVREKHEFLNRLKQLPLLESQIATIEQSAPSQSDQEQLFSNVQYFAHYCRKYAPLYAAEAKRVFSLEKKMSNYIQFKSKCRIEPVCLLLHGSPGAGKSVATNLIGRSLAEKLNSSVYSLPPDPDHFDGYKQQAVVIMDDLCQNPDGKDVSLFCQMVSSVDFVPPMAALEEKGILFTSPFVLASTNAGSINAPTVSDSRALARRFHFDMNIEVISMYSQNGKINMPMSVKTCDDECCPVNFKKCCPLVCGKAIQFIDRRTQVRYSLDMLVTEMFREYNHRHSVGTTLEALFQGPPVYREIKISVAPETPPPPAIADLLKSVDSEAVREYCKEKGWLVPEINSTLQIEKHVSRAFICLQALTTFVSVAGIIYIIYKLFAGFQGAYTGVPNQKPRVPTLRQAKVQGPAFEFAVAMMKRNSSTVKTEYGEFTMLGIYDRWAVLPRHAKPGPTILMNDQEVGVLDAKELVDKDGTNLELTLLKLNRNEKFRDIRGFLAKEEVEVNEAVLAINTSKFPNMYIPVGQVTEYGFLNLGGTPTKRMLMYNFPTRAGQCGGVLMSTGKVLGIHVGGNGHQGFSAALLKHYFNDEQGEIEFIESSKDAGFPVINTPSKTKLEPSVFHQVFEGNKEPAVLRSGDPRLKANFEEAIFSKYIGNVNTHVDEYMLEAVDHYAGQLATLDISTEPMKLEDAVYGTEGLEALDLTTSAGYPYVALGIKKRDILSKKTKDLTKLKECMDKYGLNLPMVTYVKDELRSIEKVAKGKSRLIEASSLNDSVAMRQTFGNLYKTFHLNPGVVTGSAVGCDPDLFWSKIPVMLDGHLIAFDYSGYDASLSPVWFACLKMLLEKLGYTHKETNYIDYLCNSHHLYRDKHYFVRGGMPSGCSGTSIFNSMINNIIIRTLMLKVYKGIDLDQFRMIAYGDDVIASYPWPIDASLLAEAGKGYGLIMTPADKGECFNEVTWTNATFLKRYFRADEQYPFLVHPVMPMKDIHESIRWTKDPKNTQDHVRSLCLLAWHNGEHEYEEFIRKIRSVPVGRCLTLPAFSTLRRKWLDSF
Chain of UniProt P50391 (whole entry, looked up): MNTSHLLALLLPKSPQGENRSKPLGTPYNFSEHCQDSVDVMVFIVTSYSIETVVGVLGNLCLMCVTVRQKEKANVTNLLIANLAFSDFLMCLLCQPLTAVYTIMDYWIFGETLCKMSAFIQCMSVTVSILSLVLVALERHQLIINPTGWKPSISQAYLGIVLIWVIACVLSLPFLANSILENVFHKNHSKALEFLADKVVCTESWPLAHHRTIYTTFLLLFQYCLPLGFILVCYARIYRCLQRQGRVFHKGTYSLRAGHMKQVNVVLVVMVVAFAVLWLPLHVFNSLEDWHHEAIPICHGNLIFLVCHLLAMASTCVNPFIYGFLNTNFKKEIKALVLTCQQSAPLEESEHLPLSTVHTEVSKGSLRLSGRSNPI
Chain of UniProt O14791 (whole entry, unmodified, looked up): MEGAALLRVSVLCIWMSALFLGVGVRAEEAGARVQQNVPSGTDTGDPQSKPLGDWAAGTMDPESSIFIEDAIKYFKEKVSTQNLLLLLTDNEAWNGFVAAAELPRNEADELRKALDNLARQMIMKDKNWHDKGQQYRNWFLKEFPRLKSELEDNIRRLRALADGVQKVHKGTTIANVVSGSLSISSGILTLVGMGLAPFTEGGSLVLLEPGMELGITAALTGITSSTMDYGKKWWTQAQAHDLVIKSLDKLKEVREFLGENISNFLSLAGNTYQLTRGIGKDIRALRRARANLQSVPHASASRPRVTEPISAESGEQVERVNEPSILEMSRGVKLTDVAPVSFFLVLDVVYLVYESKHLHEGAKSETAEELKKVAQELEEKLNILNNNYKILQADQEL

SMILES | target | assay | system | setting | EC50
C[C@@H]1NC(=O)[C@H](CC(N)=O)N2C[C@H](Cc3c[nH]c4ccccc34)NC(=O)[C@@H](CSCC2=O)NC(=O)[C@H](CCCNC(=N)N)NC(=O)[C@@H](Cc2ccccc2)NC(=O)[C@H](Cc2c[nH]cn2)NC(=O)[C@@H](NC(=O)[C@@H](N)Cc2ccc(O)cc2)CSSC[C@@H](C(=O)N[C@@H](Cc2ccc(O)cc2)C(N)=O)NC(=O)[C@H](Cc2ccccc2)NC1=O | Mc1r | reporter gene, agonist | – | – | 0.81 nM
CCOC(=O)/C=C/[C@H](C[C@@H]1CCNC1=O)NC(=O)[C@H](Cc1ccccc1)NC(=O)[C@H](COC(C)(C)C)NC(=O)OCc1ccccc1 | Genome polyprotein, 3C protease (Coxsackievirus B3, UniProt P03313) | protease activity, inhibitor, FLuc reporter | COS-1 | 16 h | 4100 nM
CC[C@H](C)[C@H](NC(=O)[C@H](CC(N)=O)NC(=O)[C@@H](NC(=O)[C@H](Cc1ccccc1)NC(=O)[C@H](Cc1ccccc1)NC(=O)[C@H](CCSC)NC=O)[C@@H](C)CC)C(=O)N[C@@H](CC(C)C)C(=O)N[C@H](C(=O)N[C@@H](CC(C)C)C(=O)O)[C@@H](C)O | Formyl peptide receptor 2 (Mus musculus, UniProt O88536) | calcium mobilisation, agonist, FLIPR Fluo-4 | HEK-293T with Gα16 | – | 57 nM
CC[C@H](C)[C@H](NC(=O)[C@H](CCCCN)NC(=O)[C@H](CC(C)C)NC(=O)[C@H](Cc1ccccc1)NC(=O)[C@H](Cc1ccccc1)NC(=O)CNC(=O)[C@@H]1CCCN1C(=O)[C@H](CO)NC(=O)[C@H](CO)NC(=O)[C@H](CC(=O)O)NC(=O)[C@@H](N)CC(=O)O)C(=O)N[C@H](C(=O)N[C@@H](CCCCN)C(=O)N[C@@H](CC(N)=O)C(=O)N[C@H](C(=O)N1CCC[C@H]1C(=O)N[C@@H](CCCNC(=N)N)C(=O)N[C@@H](CC(C)C)C(N)=O)C(C)C)[C@@H](C)O | Ecdysis triggering hormone receptor B (Aedes aegypti, UniProt A7J265) | – | – | – | ~10 nM
C[N+]1([O-])CCN(C2=Nc3cc(Cl)ccc3Nc3ccccc32)CC1 | CHRM3 (Homo sapiens, UniProt P20309) | calcium signal, agonist | – | – | > 30000 nM
CC(=O)N[C@@H](CCCNC(=N)N)C(=O)N[C@@H](Cc1ccc(O)cc1)C(=O)N[C@@H](CCCN/C(N)=N/C(=O)NCCCCN)C(=O)N[C@@H](CC(C)C)C(=O)N[C@@H](CCCNC(=N)N)C(=O)N[C@@H](Cc1ccc(O)cc1)C(N)=O | NPY4R (Homo sapiens, UniProt P50391) | β-arrestin 2 recruitment, agonist | HEK293T | – | 124 ± 24 nM
CSCC[C@H](NC(=O)[C@H](Cc1ccccc1)NC(=O)[C@H](CO)NC(=O)CNC(=O)[C@@H](NC(=O)[C@H](C)NC(=O)[C@H](Cc1c[nH]c2ccccc12)NC(=O)[C@H](CC(C)C)NC(=O)[C@@H]1CCC(=O)N1)C(C)C)C(N)=O | GRPR (Homo sapiens, UniProt P30550) | inositol phosphate, agonist | – | – | 288 nM
C[N+](C)(CC#CCOC1=NOCC1)CCCCCCNC(=O)CCOCCOCCOCCOCCNC(=O)CCCC(=O)NCCCCC(C(=O)O)N(CC(=O)O)CC(=O)O (stereo not drawn) | CHRM1 | calcium response, agonist, fura-2 calcium imaging | transfected CHO cells | – | 2400 nM
COCC(=O)NCCSc1c(-c2ccc(Br)cc2)[nH]c2ccccc12 | Apolipoprotein L1 (Homo sapiens, UniProt O14791, I384M/M228I/R255K/S342G) | cell death rescue, inhibitor | HEK293 expressing Apolipoprotein L1 | – | 1100 nM
CC[C@H](C)[C@H](NC(=O)[C@H](CO)NC(=O)[C@H](Cc1ccc(O)cc1)NC(=O)[C@H](CC(=O)O)NC(=O)[C@H](CO)NC(=O)[C@@H](NC(=O)[C@H](Cc1ccccc1)NC(=O)[C@@H](NC(=O)CNC(=O)[C@H](CCC(=O)O)NC(=O)C(C)(C)NC(=O)[C@@H](N)Cc1ccc(O)cc1)[C@@H](C)O)[C@@H](C)CC)C(=O)N[C@@H](C)C(=O)N[C@@H](CCSC)C(=O)N[C@@H](CC(=O)O)C(=O)N[C@@H](CCCCN)C(=O)N[C@H](C(=O)N[C@@H](CCCNC(=N)N)C(=O)N[C@@H](CCC(N)=O)C(=O)N[C@@H](CCC(N)=O)C(=O)N[C@@H](CC(=O)O)C(=O)N[C@@H](Cc1ccccc1)C(=O)N[C@H](C(=O)N[C@@H](CC(N)=O)C(=O)N[C@@H](Cc1c[nH]c2ccccc12)C(=O)N[C@@H](CC(C)C)C(=O)N[C@@H](CC(C)C)C(=O)N[C@@H](C)C(=O)N[C@@H](CCC(N)=O)C(=O)N[C@@H](CCCNC(=N)N)C(=O)NCC(=O)N[C@@H](CCCCN)C(=O)N[C@@H](CCCCN)C(=O)N[C@@H](CO)C(=O)N[C@@H](CC(=O)O)C(=O)N[C@@H](Cc1c[nH]c2ccccc12)C(=O)N[C@@H](CCCCN)C(=O)N[C@@H](Cc1c[nH]cn1)C(=O)N[C@@H](CC(N)=O)C(=O)N[C@H](C(=O)N[C@H](C(=O)N[C@@H](CCC(N)=O)C(=O)O)[C@@H](C)O)[C@@H](C)CC)C(C)C)[C@@H](C)CC | Gastric inhibitory polypeptide receptor (Mus musculus, UniProt Q0P543) | reporter gene, agonist, luciferase | – | – | 0.0039 nM
O=C(CCc1ccc(Br)cc1)N[C@H]1CCOC1=O | lasR (Pseudomonas aeruginosa, UniProt P25084) | reporter gene, agonist | PAO-JP2 pump active | – | > 200000 nM
Cc1cc(O)cc(C)c1CC(N)C(=O)NC1CCNc2c(CN3CCCCC3)cc(Cc3ccccc3)cc21 (stereo not drawn) | OPRK1 (Homo sapiens, UniProt P41145) | GTPγS binding, agonist, radiometric | – | cell membranes | 100 nM
C[C@@H]1NC(=O)[C@H](CC(N)=O)NC(=O)[C@H](Cc2c[nH]c3ccccc23)NC(=O)[C@H](CCCNC(=N)N)NC(=O)[C@@H](Cc2ccccc2)NC(=O)[C@H](Cc2c[nH]cn2)NC(=O)[C@@H](NC(=O)[C@@H](N)Cc2ccc(O)cc2)CCCn2cc(nn2)-c2cccc(c2)-c2cn(nn2)CCC[C@@H](C(=O)N[C@@H](Cc2ccc(O)cc2)C(N)=O)NC(=O)[C@H](Cc2ccccc2)NC1=O | Mc1r | agonist | – | – | 317 ± 9 nM
CC[C@H](C)[C@@H]1NC(=O)[C@H](Cc2ccccc2)NC(=O)[C@H](C)NC(=O)[C@@H](NC(=O)[C@@H](NC(=O)[C@H](CO)NC(=O)[C@@H](N)Cc2ccc(O)cc2)[C@@H](C)O)CSC(=O)[C@H](CCSC)NC1=O | agrC (Staphylococcus aureus, UniProt O07911) | – | – | – | 386 nM
CCCC[C@H](NC=O)C(=O)N[C@@H](CCCC)C(=O)N[C@@H](Cc1c[nH]c2ccccc12)C(=O)N[C@@H](CCC(=O)O)C(=O)N[C@@H](CC(=O)O)C(=O)N[C@@H](Cc1c[nH]c2ccccc12)C(=O)N[C@H](C(=O)NCC(=O)N[C@@H](Cc1c[nH]c2ccccc12)C(=O)N[C@H](C(=O)O)[C@@H](C)CC)C(C)C | FPR1 (Homo sapiens, UniProt P21462, N192K) | receptor surface downregulation, agonist | CHO cells | 1 h, 37 °C | 40 ± 3 nM
CN1CCN(c2nnnc3c2sc2nc(N4CCOCC4)c4c(c23)CCCC4)CC1 | Beta-glucuronidase (uidA, Escherichia coli, UniProt P05804) | – | – | – | 2300 ± 500 nM
CC(=O)N[C@@H](CCCNC(=N)N)C(=O)N[C@@H](CCCNC(=N)N)C(=O)N[C@@H](C(=O)N1Cc2ccccc2C[C@H]1C(N)=O)[C@@H](c1ccccc1)c1c[nH]c2ccccc12 | Mc1r | cAMP, agonist, AlphaScreen | – | – | 900 nM
Cc1ccc(Cn2cc(C(=O)N[C@H]3CCCC[C@@H]3O)c3c(F)cc(F)cc32)cn1 | CHRM1 | calcium mobilization, positive allosteric modulator | CHO | added: acetylcholine EC20 | 1660 nM

A few entries again:
SMILES | target | assay | system | setting | EC50
Cc1cc(O)cc(C)c1CC(N)C(=O)NC1CCNc2c(CN3CCCCC3)cc(Cc3ccccc3)cc21 (stereo not drawn) | OPRK1 (Homo sapiens, UniProt P41145) | GTPγS binding, agonist, radiometric | – | cell membranes | 100 nM
O=C(CCc1ccc(Br)cc1)N[C@H]1CCOC1=O | lasR (Pseudomonas aeruginosa, UniProt P25084) | reporter gene, agonist | PAO-JP2 pump active | – | > 200000 nM
CC(=O)N[C@@H](CCCNC(=N)N)C(=O)N[C@@H](Cc1ccc(O)cc1)C(=O)N[C@@H](CCCN/C(N)=N/C(=O)NCCCCN)C(=O)N[C@@H](CC(C)C)C(=O)N[C@@H](CCCNC(=N)N)C(=O)N[C@@H](Cc1ccc(O)cc1)C(N)=O | NPY4R (Homo sapiens, UniProt P50391) | β-arrestin 2 recruitment, agonist | HEK293T | – | 124 ± 24 nM
